Results of several laboratories.
Protocols differ between the studies behind these lines. ± marks the error that the study gave.

`Cc1c(C)c2c(c(C)c1OCc1ccccc1)CCC(C)(C(=O)NN=C1C(=O)Nc3ccc(Cl)cc31)O2` (stereo not shown) — result for “minimal effective dose”: 100 mg/kg (seizure protection; male CF-1 mice; intraperitoneal, 4 h, together with: maximal electroshock).
Under “urinary glucose excretion”, `CCOc1ccc(Cc2cc([C@]34OC[C@](CO)(O3)[C@@H](O)[C@H](O)[C@H]4O)ccc2Cl)cc1` is recorded as about 42% (human, type 2 diabetes, moderate renal impairment; dose not given, 24 h; relative to: normal renal function median).
The inhibition of `Cc1cccc(N(O)N=Nc2ccc(S(=O)(=O)Nc3nccs3)cc2)c1` is reported as 37.1% (paw oedema; rat, carrageenan oedema; oral, 100 mg/kg, 2 h after carrageenan; relative to: vehicle).
For `CC[C@H](C)[C@@H]1NC(=O)[C@H](CCCNC(=N)N)NC(=O)[C@H](CC(=O)O)NC(=O)[C@H](CC(C)C)NC(=O)[C@H](CCCCN)NC(=O)[C@H](CC(C)C)NC(=O)CNC(=O)[C@H](Cc2ccccc2)NC(=O)[C@@H](NC(=O)CNC(=O)[C@H](CCCCN)NC(=O)[C@H](CO)NC(=O)[C@H](CC(C)C)NC(=O)CNC(=O)[C@H](CCCCN)NC(=O)[C@H](CCCCN)NC(=O)[C@H](CC(N)=O)NC(=O)[C@H](C)NC(=O)CNC(=O)[C@H](CCCCN)NC(=O)[C@H](Cc2ccc(O)cc2)NC(=O)[C@H](CCCCN)NC(=O)[C@H](CCCNC(=N)N)NC(=O)[C@H](C)NC(=O)[C@H](CC(N)=O)NC(=O)[C@@H]2CCCN2C(=O)[C@H](Cc2c[nH]cn2)NC(=O)[C@H](CCC(=O)O)NC(=O)[C@H](CCC(N)=O)NC(=O)CNC(=O)[C@@H]2CCCN2)CSSC[C@@H](C(=O)O)NC(=O)CNC(=O)[C@H](CC(C)C)NC(=O)CNC(=O)[C@H](CO)NC(=O)[C@H](CCSC)NC(=O)[C@H](CO)NC(=O)CNC1=O`, the Emax was 4460 pg/mL (measured: collagen type X marker; human patients with achondroplasia, serum; day 10 to 183, sigmoid Emax vs AUC(0-t)).
Under “minimal effective dose”, `Cc1c(C)c2c(c(C)c1O)CCC(C)(C(=O)NN=C1C(=O)N(C)c3ccccc31)O2` (stereo not shown) is recorded as 100 mg/kg (seizure protection; male CF-1 mice; intraperitoneal, 0.5 h, together with: pentylenetetrazole 60 mg/kg subcutaneous).
With `CCCN(O)N=Nc1ccc(S(=O)(=O)Nc2onc(C)c2C)cc1` the inhibition was 68.6% (paw oedema; rat, carrageenan oedema; oral, 100 mg/kg, 4 h after carrageenan; relative to: vehicle).
`CC(C)C[C@H](NC(=O)[C@H](CO)NC(=O)[C@H](CCCNC(=N)N)NC(=O)[C@H](CC(=O)O)NC(=O)[C@H](CCC(=O)O)NC(=O)[C@H](C)NC(=O)[C@@H]1CCCN1C(=O)[C@H](C)NC(=O)[C@H](CCC(=O)O)NC(=O)[C@@H]1CCCN1C(=O)[C@@H]1CCCN1)C(N)=O` gave an HVA level of 37 ± 7 ng/g (HPLC-EC; F344 rat, normal, substantia nigra; intranasal, 100 µg, 5 days/week for 3 weeks).
`COc1cc(OC)c2c(=O)cc(-c3cc(C)c(OC[C@H](O)CN4CCN(C)CC4)c(C)c3)oc2c1`: “neutrophilic airway inflammation” “inhibited” (histology; C57BL/6J mouse, poly(I:C) model; oral or intraperitoneal, 10 mg/kg).
Under arthritis severity, `GEBGABGNKGEQGPKGEBGP` is recorded as “decreased” (peptide, DBA/1 mouse, collagen-induced arthritis; dose not given, treated after onset; relative to: ovalbumin).
`Cc1c(C)c2c(c(C)c1O)CCC(C)(C(=O)NN=C1C(=O)Nc3ccc(Br)cc31)O2` (stereo not shown) — result for “minimal effective dose”: over 300 mg/kg (seizure protection; male CF-1 mice; intraperitoneal, 0.5 h, together with: maximal electroshock).

Some of these lines once more:
The inhibition of `Cc1cccc(N(O)N=Nc2ccc(S(=O)(=O)Nc3nccs3)cc2)c1` is reported as 37.1% (paw oedema; rat, carrageenan oedema; oral, 100 mg/kg, 2 h after carrageenan; relative to: vehicle).
